Measurements pooled from the literature.
Every numbered part comes from another study and shows a few of its results, in no order.

Series 1
Target: Histone acetyltransferase KAT6A, winged helix 1, GST fusion (KAT6A, Homo sapiens, UniProt Q92794, residues 1-85)
Technique: protein binding microarray
Form: double-stranded DNA, one strand shown
Sample: in vitro
Tested at: not given
Notes: 8-mer, flanks averaged, mean of 2 arrays, mostly near background
Reference: not given
Direction: higher = stronger binding
Quantity: E-score
Residues (chain): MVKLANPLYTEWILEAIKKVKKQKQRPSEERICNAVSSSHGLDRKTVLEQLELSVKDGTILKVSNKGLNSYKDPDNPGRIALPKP
CCGAATTC: 0.103
GCATCGCC: 0.246
AAGCCCTT: -0.114
GACATTAC: 0.0422
GCGATAGA: 0.00131
AATCATCA: -0.179
ACCTACGA: -0.166
GACGGCCA: 0.344
ATCTGGTG: -0.243
CTGGAGGA: -0.0833

Series 2
Target: Phosphate system positive regulatory protein PHO4, full length, GST-tagged (PHO4, Saccharomyces cerevisiae, UniProt P07270, residues 1-312)
Technique: competition protein-binding microarray
Form: double-stranded DNA, one strand shown
Sample: in vitro
Tested at: 2 µM
Notes: whole 60-bp probe, lowest competitor level
Added: Cbf1 competitor, 0.05 µM
Direction: higher = stronger binding
Quantity: fluorescence intensity
Construct (chain): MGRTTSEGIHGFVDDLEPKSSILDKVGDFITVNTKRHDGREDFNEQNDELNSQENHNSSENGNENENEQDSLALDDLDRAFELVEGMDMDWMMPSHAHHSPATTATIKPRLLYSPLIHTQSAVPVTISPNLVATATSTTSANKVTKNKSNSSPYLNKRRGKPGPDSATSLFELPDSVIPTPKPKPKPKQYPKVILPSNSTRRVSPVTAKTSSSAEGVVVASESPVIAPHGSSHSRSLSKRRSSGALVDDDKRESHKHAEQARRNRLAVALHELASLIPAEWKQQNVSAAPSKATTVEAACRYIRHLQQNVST
CTAACGAAGGTTTGCATTGTGGGTGACAAGCCAAGTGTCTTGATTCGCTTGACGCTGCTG: 4880 a.u.
CTATTGCAAGAACTGGCCGTGATGGCAGAGTATCGGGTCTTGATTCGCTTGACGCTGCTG: 4100 a.u.
TGTGTAACAGAACCGGACGTGCTTTAGGCTGATGAAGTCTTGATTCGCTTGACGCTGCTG: 5200 a.u.
AAATTACTAAGTTGGATTGTGGGTGACGCCGTATGAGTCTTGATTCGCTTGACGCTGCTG: 4110 a.u.
GTCTTGTCTCATTGTGCAGTGGGTGTCCCCACTTCAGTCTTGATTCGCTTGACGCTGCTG: 5520 a.u.
GTCTTGTCTCATTGGCGTGTGGGTGTCCCCACTTCAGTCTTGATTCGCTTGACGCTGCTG: 6860 a.u.
TCACGGAACAACCGTCAGCGGAGATTAGAGAAGCCTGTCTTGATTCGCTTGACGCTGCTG: 3230 a.u.
TCACAGGAAAAGGCCCACATGCCAAAAAGGGTACCAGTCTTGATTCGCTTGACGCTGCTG: 11000 a.u.
GTCTTGTCTCATTGTCTTGTGGGTGTCCCCACTTCAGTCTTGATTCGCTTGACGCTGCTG: 4500 a.u.

Series 3
Target: Sal-like protein 4, full length isoform A (SALL4, Homo sapiens, UniProt Q9UJQ4, residues 1-1053)
Sequence of UniProt Q9UJQ4 (whole entry, looked up): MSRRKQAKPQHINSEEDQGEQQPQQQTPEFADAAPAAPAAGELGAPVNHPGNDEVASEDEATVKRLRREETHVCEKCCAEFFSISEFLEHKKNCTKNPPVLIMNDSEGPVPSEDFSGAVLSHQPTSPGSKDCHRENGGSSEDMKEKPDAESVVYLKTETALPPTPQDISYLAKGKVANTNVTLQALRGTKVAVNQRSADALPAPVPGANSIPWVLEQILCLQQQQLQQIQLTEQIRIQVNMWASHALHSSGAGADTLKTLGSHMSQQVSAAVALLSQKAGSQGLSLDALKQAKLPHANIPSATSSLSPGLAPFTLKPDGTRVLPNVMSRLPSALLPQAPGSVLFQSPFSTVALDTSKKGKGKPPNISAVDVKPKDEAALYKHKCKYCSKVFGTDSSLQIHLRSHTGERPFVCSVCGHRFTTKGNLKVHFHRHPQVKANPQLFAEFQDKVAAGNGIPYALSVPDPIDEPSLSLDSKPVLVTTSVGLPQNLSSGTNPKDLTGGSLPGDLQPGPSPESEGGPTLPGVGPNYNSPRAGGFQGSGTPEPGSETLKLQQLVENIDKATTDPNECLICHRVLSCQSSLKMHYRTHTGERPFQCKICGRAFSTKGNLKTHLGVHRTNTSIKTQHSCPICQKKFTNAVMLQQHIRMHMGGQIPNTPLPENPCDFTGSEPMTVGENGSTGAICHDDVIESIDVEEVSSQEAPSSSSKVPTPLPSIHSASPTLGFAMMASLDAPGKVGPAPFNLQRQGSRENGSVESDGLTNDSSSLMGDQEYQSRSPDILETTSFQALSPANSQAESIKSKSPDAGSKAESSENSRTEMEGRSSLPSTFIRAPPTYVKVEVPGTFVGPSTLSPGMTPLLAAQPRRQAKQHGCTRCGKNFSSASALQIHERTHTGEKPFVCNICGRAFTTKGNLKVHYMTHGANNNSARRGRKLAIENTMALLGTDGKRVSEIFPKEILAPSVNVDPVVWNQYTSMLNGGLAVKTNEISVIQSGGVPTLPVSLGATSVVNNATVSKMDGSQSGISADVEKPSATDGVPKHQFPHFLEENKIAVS
Technique: universal PBM
Form: double-stranded DNA, one strand shown
Sample: in vitro
Tested at: 600 nM
Notes: 8-mer, flanks averaged, mean of replicates
Direction: higher = stronger binding
Quantity: E-score
CGTCCATA: 0.0172
CAATGTTA: 0.28
AATCCCCT: -0.146
AATCCGGT: -0.14
AAACGTAT: 0.222
TATGTGAA: 0.286
GCCACAGA: -0.234
AATCCTCC: -0.169
AATGTGCA: 0.216

Further values, each from its own experiment
PhoQ, residues 284 288 289 292 302 303 SSTMSV
fold induction (PhoP, residues 12 14 15 18 19 VHSCL (Escherichia coli, UniProt P23836); Sort-seq, refers to: YFP reporter; E. coli; PhoQ-PhoP variant library, added: 10 µM Mg2+; reference: high Mg2+ state, higher = stronger signaling): 2.61

For quick reference, copied from above (series 2):
GTCTTGTCTCATTGTGCAGTGGGTGTCCCCACTTCAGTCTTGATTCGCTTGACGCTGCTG: 5520 a.u.
TCACGGAACAACCGTCAGCGGAGATTAGAGAAGCCTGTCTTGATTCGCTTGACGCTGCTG: 3230 a.u.
GTCTTGTCTCATTGGCGTGTGGGTGTCCCCACTTCAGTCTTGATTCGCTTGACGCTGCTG: 6860 a.u.
GTCTTGTCTCATTGTCTTGTGGGTGTCCCCACTTCAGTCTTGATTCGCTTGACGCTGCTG: 4500 a.u.
